Published values from different studies.
Every numbered part comes from another study and shows a few of its results, in no order. Values joined by “and” are separate records of one study, mostly repeats; a detail may differ.
Sequence of UniProt Q6P2M8 (whole entry, looked up): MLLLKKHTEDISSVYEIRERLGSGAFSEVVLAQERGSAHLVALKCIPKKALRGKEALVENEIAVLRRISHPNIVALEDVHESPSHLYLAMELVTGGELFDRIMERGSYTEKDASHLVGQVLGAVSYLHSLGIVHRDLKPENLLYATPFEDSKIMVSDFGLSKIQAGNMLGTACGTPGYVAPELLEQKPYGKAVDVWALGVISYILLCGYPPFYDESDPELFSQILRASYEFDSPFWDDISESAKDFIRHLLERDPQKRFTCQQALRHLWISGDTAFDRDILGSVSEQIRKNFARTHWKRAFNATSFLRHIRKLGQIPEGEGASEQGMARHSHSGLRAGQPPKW
Sequence of UniProt Q00535 (whole entry, looked up): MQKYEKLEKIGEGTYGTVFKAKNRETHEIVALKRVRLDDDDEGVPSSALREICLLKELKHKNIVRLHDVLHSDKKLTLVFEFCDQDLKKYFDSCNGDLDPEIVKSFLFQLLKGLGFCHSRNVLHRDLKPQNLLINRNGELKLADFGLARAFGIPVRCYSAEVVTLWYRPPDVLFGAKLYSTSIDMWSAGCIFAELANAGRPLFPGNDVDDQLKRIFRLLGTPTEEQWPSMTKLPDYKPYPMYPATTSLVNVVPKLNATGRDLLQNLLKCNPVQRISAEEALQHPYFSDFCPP

Block 1 — concentration: 1 µM; measurement: remaining binding
Structure (SMILES): CC[C@@]1(c2cccc(-c3c(F)cncc3OC)c2)C2=C(Nc3n[nH]cc31)[C@H](F)C(C)(C)CC2=O (single isomer, unassigned)
Receptor-type tyrosine-protein kinase FLT3 (FLT3, Homo sapiens, UniProt P36888, D835Y); kinase binding, KINOMEscan; relative to: DMSO control: 99%
Inhibitor of nuclear factor kappa-B kinase subunit beta (IKBKB, Homo sapiens, UniProt O14920); kinase binding, KINOMEscan; relative to: DMSO control: 64%
Phosphatidylinositol 3-kinase C2 domain-containing subunit gamma (PIK3C2G, Homo sapiens, UniProt O75747); binding, competition with immobilised ligand: 88%
Mast/stem cell growth factor receptor Kit (KIT, Homo sapiens, UniProt P10721, D816H); kinase binding, KINOMEscan; relative to: DMSO control: 65%
Ribosomal protein S6 kinase alpha-1, N-terminal kinase domain (RPS6KA1, Homo sapiens, UniProt Q15418); kinase binding, KINOMEscan; relative to: DMSO control: 100%
Phosphatidylinositol 4,5-bisphosphate 3-kinase catalytic subunit alpha isoform (PIK3CA, Homo sapiens, UniProt P42336, E545K); binding, competition with immobilised ligand: 71%
Fibroblast growth factor receptor 1 (FGFR1, Homo sapiens, UniProt P11362); binding, competition with immobilised ligand: 96%
MAP/microtubule affinity-regulating kinase 3 (MARK3, Homo sapiens, UniProt P27448); kinase binding, KINOMEscan; relative to: DMSO control: 96%
Calcium/calmodulin-dependent protein kinase type 1B (PNCK, Homo sapiens, UniProt Q6P2M8); kinase binding, KINOMEscan; relative to: DMSO control: 57%
Eukaryotic translation initiation factor 2-alpha kinase 1 (EIF2AK1, Homo sapiens, UniProt Q9BQI3); binding, competition with immobilised ligand: 91%
Serine/threonine-protein kinase N2 (PKN2, Homo sapiens, UniProt Q16513); kinase binding, KINOMEscan; relative to: DMSO control: 66%
Ephrin type-A receptor 2 (EPHA2, Homo sapiens, UniProt P29317); binding, competition with immobilised ligand: 100%
Homeodomain-interacting protein kinase 2 (HIPK2, Homo sapiens, UniProt Q9H2X6); binding, competition with immobilised ligand: 65%
Epidermal growth factor receptor (EGFR, Homo sapiens, UniProt P00533); kinase binding, KINOMEscan; relative to: DMSO control: 100%
Bone morphogenetic protein receptor type-2 (BMPR2, Homo sapiens, UniProt Q13873); kinase binding, KINOMEscan; relative to: DMSO control: 66%
Dual specificity protein kinase CLK4 (CLK4, Homo sapiens, UniProt Q9HAZ1); binding, competition with immobilised ligand: 99%
AP2-associated protein kinase 1 (AAK1, Homo sapiens, UniProt Q2M2I8); binding, competition with immobilised ligand: 87%
Serine/threonine-protein kinase LATS2 (LATS2, Homo sapiens, UniProt Q9NRM7); binding, competition with immobilised ligand: 79%

Block 2 — read-out: enzyme activity; mode: inhibitor; technique: fluorescence; measurement: inhibition
SMILES: NC/C(=C\F)COc1cccc(Cn2c(=S)[nH]c(=O)c3[nH]ccc32)c1
MPO: Myeloperoxidase (MPO, Homo sapiens, UniProt P05164)
AOC3: Amine oxidase [copper-containing] 3 (AOC3, Homo sapiens, UniProt Q16853)
Sequence of UniProt Q16853 (whole entry, looked up): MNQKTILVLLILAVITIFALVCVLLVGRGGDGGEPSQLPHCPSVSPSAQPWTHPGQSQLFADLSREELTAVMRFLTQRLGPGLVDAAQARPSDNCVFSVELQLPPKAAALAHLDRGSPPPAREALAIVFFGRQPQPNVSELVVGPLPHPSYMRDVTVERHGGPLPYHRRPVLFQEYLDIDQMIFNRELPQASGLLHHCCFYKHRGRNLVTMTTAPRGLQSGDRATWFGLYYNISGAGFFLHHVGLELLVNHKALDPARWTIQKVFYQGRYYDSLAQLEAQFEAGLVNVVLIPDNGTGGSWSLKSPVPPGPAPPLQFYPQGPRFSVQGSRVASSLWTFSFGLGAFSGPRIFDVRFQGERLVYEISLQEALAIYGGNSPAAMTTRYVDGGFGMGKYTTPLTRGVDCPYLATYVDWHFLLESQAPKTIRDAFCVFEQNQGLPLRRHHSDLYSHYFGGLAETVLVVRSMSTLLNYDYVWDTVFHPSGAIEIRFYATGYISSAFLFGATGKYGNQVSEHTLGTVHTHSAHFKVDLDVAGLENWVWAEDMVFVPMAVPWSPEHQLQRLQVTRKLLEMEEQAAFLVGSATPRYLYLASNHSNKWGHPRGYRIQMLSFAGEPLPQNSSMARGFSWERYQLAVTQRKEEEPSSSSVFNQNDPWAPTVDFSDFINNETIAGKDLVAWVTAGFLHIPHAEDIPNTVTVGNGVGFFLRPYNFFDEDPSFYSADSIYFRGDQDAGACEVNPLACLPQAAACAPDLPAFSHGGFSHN
MPO; 1.5 nM: 15.3% and 11.2% and 7.12%
MPO; 5 µM: 100% and 99.4% and 99%
AOC3; 200 pM: 4.3% and -4.99%
MPO; 4.6 nM: 30.4% and 23% and 24.6%
MPO; 41.2 nM: 79.4% and 78.2% and 80.1%
AOC3; 30 µM: 100% and 99.9% and 99.1% and 99.8% and 99.4%
MPO; 300 pM: -2.1% and 2.01% and 3.64%

Block 3 — technique: CellTiter-Glo; measurement: viability
SMILES: CCN1CCN(Cc2ccc(COc3c(-c4c(C)c(F)cc5[nH]ncc45)c(C4CC4)cc4c(N5C[C@@H]6C[C@H]5CN6)nc(OC5CCOCC5)nc34)cc2)C(=O)C1
AsPC-1 (KRAS G12D); 1 nM: 88.1% and 88.8% and 84.8%
AsPC-1 (KRAS G12D); 3 nM: 92.1% and 83.6% and 95.8%
AsPC-1 (KRAS G12D); 300 nM: 42.1% and 49.2% and 54.4% and 57.1%
AsPC-1 (KRAS G12D); 10 µM: 0.056% and 0.041% and 0.031% and 0.011%
AsPC-1 (KRAS G12D); 10 nM: 89.3% and 90.5% and 81.2% and 101%
A-375 (KRAS wild type); 30 nM, 6 days; relative to: DMSO: 102% and 101% and 97% and 106%
AsPC-1 (KRAS G12D); 100 nM: 72.2% and 73.1% and 88.6% and 72.9%
AsPC-1 (KRAS G12D); 30 nM: 107% and 110% and 101% and 93.2%

Block 4 — SMILES: CCNC(=O)COc1ccc(I)c(C)c1; mode: inhibitor; cells: CHO-BC cells; setting: unit not given; relative to: uninhibited cells; measurement: remaining transport activity
Target: Sodium-dependent neutral amino acid transporter B(0)AT1 (SLC6A19, Homo sapiens, UniProt Q695T7)
Sequence of UniProt Q695T7 (whole entry, looked up): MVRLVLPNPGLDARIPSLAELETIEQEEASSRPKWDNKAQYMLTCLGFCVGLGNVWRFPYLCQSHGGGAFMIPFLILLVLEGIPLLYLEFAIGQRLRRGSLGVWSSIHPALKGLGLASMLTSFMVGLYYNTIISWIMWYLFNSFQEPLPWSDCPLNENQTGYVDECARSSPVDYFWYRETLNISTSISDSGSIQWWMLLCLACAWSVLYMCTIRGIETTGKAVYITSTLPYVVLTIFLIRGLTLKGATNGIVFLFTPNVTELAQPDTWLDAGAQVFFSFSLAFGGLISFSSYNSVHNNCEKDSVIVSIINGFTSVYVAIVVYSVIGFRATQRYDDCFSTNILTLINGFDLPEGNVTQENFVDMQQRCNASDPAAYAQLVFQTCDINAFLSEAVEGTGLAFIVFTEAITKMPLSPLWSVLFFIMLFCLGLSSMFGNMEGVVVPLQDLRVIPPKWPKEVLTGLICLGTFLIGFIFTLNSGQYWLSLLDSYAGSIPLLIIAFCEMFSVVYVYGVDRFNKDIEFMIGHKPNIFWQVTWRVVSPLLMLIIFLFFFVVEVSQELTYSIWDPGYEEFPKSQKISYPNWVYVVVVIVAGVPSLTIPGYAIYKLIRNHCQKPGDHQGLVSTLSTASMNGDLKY
FLIPR membrane potential; 0.03 µM: 0.572
L-[14C]leucine uptake; 0.03 µM, 6 min, 37 °C, with: GPNA 3 mM, JPH203 3 µM: 0.92
FLIPR membrane potential; 0.003 µM: 0.879

Block 5 — technique: DNA microarray; relative to: untreated cells; measurement: log2 fold change
SMILES: COCC1CC2C(CCC3(C)C(O)CCC23)c2ccc(O)cc21 (stereo not drawn)
PANC-1; item: CCL8; concentration not given, higher dose arm: 4.82
A549; item: MCM6; 50 µM: -0.21
PANC-1; item: GDF15; concentration not given, lower dose arm: 1.58
A549; item: DNER; 50 µM: 4.53
PANC-1; item: KIF20A; concentration not given, lower dose arm: -0.572 and -0.588 and -0.594 and -0.578 and -0.57
A549; item: IL28A; concentration not given: 1.7
PANC-1; item: MCM10; concentration not given: -1.2
A549; item: IL20RA; 50 µM: 3.52
PANC-1; item: TMEM108; concentration not given, higher dose arm: 0
SK-OV-3; item: AURKA; concentration not given, higher dose arm: -0.286
PANC-1; item: ACTA2; concentration not given, lower dose arm: -0.366
A549; item: CDC25B; 100 µM: 0.392
PANC-1; item: ADAMTS8; concentration not given, lower dose arm: 0
PANC-1; item: CCL11; concentration not given, higher dose arm: 0

Block 6 — read-out: binding; mode: competitor; technique: NanoBRET; cells: HEK293; measurement: normalized BRET
SMILES: CN1CCC[C@H]1COc1nc2c(c(N3CCN(C(=O)C4CC4)[C@@H](CC#N)C3)n1)CCN(c1cccc3cccc(Cl)c13)C2
KRAS Q61L: GTPase KRas (KRAS, Homo sapiens, UniProt P01116, Q61L)
KRAS G13D: GTPase KRas (KRAS, Homo sapiens, UniProt P01116, G13D)
KRAS Q61R: GTPase KRas (KRAS, Homo sapiens, UniProt P01116, Q61R)
KRAS Q61L; 1.24 µM: 74.1% and 66.5% and 74.3%
KRAS G13D; 15.2 nM: 92.9% and 100% and 95.6%
KRAS Q61R; 15.2 nM: 102% and 89.1% and 97.5%
KRAS G13D; 1.69 nM: 95.9% and 104% and 90.4%
GTPase KRas (KRAS, Homo sapiens, UniProt P01116, G12D); 3.7 µM: 82.3% and 99.1% and 90.5%
KRAS G13D; 137 nM: 96.5% and 90.9% and 94.7%
KRAS Q61R; 1.24 µM: 95.8% and 75.2% and 87%
KRAS Q61L; 412 nM: 90.4% and 90.6% and 82.9%
KRAS Q61L; 45.7 nM: 92.5% and 82.3% and 88.6%

Block 7 — read-out: kinase activity; mode: inhibitor; technique: ADP-Glo; concentration: 0.0082 µM; measurement: inhibition
Target: Cyclin-dependent kinase 12, with cyclin K (CDK12, Homo sapiens, UniProt Q9NYV4)
Sequence of UniProt Q9NYV4 (whole entry, looked up): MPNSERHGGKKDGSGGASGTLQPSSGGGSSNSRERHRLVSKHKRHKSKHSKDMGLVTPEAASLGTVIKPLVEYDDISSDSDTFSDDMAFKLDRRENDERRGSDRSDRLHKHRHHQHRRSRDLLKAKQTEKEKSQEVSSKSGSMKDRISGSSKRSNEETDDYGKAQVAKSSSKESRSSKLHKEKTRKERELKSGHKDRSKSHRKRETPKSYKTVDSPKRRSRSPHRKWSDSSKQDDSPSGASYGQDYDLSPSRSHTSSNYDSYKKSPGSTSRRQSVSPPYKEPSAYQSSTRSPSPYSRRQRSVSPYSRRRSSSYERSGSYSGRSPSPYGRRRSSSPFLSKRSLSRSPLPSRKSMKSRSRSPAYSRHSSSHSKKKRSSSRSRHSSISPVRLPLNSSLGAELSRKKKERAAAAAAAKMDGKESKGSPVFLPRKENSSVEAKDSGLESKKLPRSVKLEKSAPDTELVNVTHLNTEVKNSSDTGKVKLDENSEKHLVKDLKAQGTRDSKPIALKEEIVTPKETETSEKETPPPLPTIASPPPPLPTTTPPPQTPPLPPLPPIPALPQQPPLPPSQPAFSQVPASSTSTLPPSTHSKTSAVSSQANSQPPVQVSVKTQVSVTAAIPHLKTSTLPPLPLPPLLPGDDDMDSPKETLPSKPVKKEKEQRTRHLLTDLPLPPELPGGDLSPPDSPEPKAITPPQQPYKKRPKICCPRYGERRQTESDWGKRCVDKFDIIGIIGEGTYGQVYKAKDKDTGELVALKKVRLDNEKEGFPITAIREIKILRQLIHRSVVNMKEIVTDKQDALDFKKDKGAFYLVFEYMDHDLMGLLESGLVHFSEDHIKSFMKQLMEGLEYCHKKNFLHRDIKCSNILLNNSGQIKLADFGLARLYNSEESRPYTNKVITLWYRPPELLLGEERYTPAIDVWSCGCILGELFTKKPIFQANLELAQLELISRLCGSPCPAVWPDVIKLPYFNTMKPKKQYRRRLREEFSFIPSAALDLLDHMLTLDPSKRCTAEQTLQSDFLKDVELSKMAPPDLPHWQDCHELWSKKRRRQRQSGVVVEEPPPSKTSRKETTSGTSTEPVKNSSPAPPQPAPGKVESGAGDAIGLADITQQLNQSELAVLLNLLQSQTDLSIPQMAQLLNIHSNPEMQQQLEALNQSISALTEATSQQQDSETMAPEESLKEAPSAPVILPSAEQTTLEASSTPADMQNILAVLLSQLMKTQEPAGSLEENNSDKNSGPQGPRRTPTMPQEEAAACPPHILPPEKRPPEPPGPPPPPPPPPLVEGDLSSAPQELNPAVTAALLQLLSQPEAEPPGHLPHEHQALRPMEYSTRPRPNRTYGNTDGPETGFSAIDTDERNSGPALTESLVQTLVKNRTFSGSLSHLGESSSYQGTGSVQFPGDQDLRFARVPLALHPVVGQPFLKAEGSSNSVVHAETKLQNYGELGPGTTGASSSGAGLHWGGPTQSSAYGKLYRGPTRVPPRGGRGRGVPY
CCn1cnc2c(NCc3nc4cc(Cl)c(Cl)cc4[nH]3)nc(N3CCN(C(=O)c4ccccn4)CC3)nc21: 3.3%
CC(=O)N1CCN(c2nc(NCc3nc4cc(Cl)c(Cl)cc4[nH]3)c3ncn(C(C)C)c3n2)CC1: -2.8%
CCn1cnc2c(NCc3nc4cc(Cl)c(Cl)cc4[nH]3)nc(N3CCC(NC(C)=O)CC3)nc21: 2.9%
CC(=O)N1CCN(c2nc(NCc3nc4cc(Cl)c(Cl)cc4[nH]3)c3ncn(-c4cnn(C)c4)c3n2)CC1: -1.9%
CCn1cnc2c(NCc3nc4cc(Cl)c(Cl)cc4[nH]3)nc(N3CCN(C(=O)c4ccccc4)CC3)nc21: -4.5%
CCn1cnc2c(NCc3nc4cc(Cl)c(Cl)cc4[nH]3)nc(N3CCN(Cc4ccncc4)CC3)nc21: -7.5%
CCn1cnc2c(NCc3nc4ccc(F)c(F)c4[nH]3)nc(N3CCn4ncnc4C3)nc21: 6.6%
CCn1cnc2c(NCc3nc4cc(Cl)c(Cl)cc4[nH]3)nc(N3CCN(C(=O)CNC(C)=O)CC3)nc21: 4.8%
CCn1cnc2c(NCc3nc4cc(Cl)c(Cl)cc4[nH]3)nc(N3CCN(C(C)=O)CC3)nc21: 13%

Block 8 — read-out: thermal unfolding; technique: differential scanning fluorimetry; concentration: 5.5 µM; direction: higher = more unfolded; measurement: SYPRO Orange fluorescence
Structure (SMILES): C[C@@H]1CN(c2ccc(-c3cc(C(=O)NCCOCCOCCOCCOCCNC(=O)Cn4cc(-c5[nH]cc(C(=O)N[C@@H](CC(N)=O)c6ccc(F)c(Cl)c6)c5-c5ccc(Cl)cc5F)cn4)ccc3F)cc2NC(=O)c2c[nH]c(=O)cc2C(F)(F)F)C[C@H](C)N1C
WDR5: WD repeat-containing protein 5 (WDR5, Homo sapiens, UniProt P61964)
DCAF1: DDB1- and CUL4-associated factor 1 (DCAF1, Homo sapiens, UniProt Q9Y4B6)
Sequence of UniProt Q9Y4B6 (whole entry, looked up): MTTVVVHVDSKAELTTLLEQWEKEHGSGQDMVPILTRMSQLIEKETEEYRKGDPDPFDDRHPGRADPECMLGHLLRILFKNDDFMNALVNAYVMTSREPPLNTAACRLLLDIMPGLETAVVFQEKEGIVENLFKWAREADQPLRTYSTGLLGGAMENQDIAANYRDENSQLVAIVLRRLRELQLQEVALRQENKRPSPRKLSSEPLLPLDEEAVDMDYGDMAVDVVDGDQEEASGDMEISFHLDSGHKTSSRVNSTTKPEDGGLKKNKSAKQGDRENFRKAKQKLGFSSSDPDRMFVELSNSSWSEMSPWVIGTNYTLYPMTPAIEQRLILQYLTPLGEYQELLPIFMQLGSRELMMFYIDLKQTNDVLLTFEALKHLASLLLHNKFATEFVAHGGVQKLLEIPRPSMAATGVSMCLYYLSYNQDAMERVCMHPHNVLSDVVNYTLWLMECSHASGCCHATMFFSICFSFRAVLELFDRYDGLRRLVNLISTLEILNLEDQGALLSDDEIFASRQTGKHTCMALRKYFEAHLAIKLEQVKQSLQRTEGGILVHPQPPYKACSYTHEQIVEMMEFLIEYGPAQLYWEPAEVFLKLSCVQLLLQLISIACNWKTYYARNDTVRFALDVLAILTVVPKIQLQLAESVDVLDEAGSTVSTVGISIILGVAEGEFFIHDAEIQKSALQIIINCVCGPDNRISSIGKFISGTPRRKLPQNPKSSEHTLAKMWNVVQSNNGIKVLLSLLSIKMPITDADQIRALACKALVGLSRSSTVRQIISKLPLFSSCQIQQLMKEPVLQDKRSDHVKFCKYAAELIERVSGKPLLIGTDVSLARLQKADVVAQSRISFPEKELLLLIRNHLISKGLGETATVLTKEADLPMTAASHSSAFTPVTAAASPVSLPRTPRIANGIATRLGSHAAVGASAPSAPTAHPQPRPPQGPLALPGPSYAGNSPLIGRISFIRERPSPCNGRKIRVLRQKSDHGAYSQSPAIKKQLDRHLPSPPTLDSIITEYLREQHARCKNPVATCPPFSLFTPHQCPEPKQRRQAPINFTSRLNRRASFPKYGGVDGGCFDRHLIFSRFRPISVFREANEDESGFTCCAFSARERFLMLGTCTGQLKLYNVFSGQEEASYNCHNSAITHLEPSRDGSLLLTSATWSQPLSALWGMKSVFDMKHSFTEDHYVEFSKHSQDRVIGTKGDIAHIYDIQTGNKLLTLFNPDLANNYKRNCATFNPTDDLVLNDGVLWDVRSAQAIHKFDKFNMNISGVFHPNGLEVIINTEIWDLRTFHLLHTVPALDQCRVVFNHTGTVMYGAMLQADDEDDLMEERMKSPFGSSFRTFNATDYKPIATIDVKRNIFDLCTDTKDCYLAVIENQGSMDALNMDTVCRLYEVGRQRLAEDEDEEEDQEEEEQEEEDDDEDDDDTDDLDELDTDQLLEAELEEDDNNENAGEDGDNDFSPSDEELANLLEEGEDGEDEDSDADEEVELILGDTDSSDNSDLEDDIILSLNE
WDR5; 25.6 °C: 14700 a.u.
DCAF1; 87.21 °C: 37700 a.u.
DCAF1; 33 °C: 8350 a.u.
WDR5; 80.41 °C: 24600 a.u.
WDR5; 42.8 °C: 14300 a.u.
WDR5; 75.61 °C: 12200 a.u.
DCAF1; 78.41 °C: 45500 a.u.
DCAF1; 35.2 °C: 8900 a.u.
WDR5; 72.41 °C: 7890 a.u.
WDR5; 89.21 °C: 43500 a.u.
DCAF1; 69.61 °C: 54800 a.u.

Block 9 — read-out: binding; technique: competition with immobilised ligand; concentration: 1 µM; measurement: remaining binding
SMILES: COc1cc(-c2nc3ccc(C(=O)NCCCN4CCN(c5cccc(C)c5C)CC4)cc3n2C2CCC2)cc(OC)c1OC
Protein kinase C epsilon type (PRKCE, Homo sapiens, UniProt Q02156): 100%
Mitogen-activated protein kinase 14 (MAPK14, Homo sapiens, UniProt Q16539): 92%
Epidermal growth factor receptor (EGFR, Homo sapiens, UniProt P00533, del746-750): 84%
Tyrosine-protein kinase JAK3, JH1 (JAK3, Homo sapiens, UniProt P52333): 82%
Cyclin-dependent kinase 5 (CDK5, Homo sapiens, UniProt Q00535): 95%
Non-receptor tyrosine-protein kinase TYK2, JH1 (TYK2, Homo sapiens, UniProt P29597): 100%
Non-receptor tyrosine-protein kinase TYK2, JH2 (TYK2, Homo sapiens, UniProt P29597): 99%
Fibroblast growth factor receptor 3 (FGFR3, Homo sapiens, UniProt P22607): 98%
Insulin receptor-related protein (INSRR, Homo sapiens, UniProt P14616): 88%
Ribosomal protein S6 kinase alpha-4, N-terminal kinase domain (RPS6KA4, Homo sapiens, UniProt O75676): 100%

Block 10 — host: female CD-1 mouse; medium: plasma; route: oral; dose: 10 mg/kg; measurement: bioavailability
Cc1ccc(O)c(C)c1-c1cnc2[nH]c(-c3cnc(N4CCC(CN5CCN(c6ccc7c(c6)CN(C6CCC(=O)NC6=O)C7=O)CC5)CC4)nc3)cc2c1C#N (stereo not drawn): 9.1%
Cc1ccc(O)c(C)c1-c1cnc2[nH]c(-c3cnc(N4CCC(CN5CCN(c6ccc(NC7CCC(=O)NC7=O)cc6F)CC5)CC4)nc3)cc2c1C#N (stereo not drawn): 35.4%
Cc1ccc(O)c(C)c1-c1cnc2[nH]c(-c3cnc(N4CC5(CC(CN6CCN(c7ccc(NC8CCC(=O)NC8=O)cc7F)CC6)C5)C4)nc3)cc2c1C#N (stereo not drawn): 28.4%
Cc1ccc(O)c(C)c1-c1cnc2[nH]c(-c3cnc(N4CCC(CN5CCC(c6ccc(NC7CCC(=O)NC7=O)cc6F)CC5)CC4)nc3)cc2c1C#N (stereo not drawn): 34.5%
Cc1ccc(O)c(C)c1-c1cnc2[nH]c(-c3cnc(N4CCC(CCN5CCN(c6ccc(NC7CCC(=O)NC7=O)cc6F)CC5)CC4)nc3)cc2c1C#N (stereo not drawn): 43.8%

Single results of other studies
Cc1nc(C)c(C=[N+]([O-])C(C)(C)C)nc1C
oxygen consumption rate (PC-12; Seahorse; 300 µM, 52.67 min, pretreatment 0.8778 h, with: MPP+): 907 pmol/min and 758 pmol/min and 831 pmol/min and 585 pmol/min and 868 pmol/min

CN(C1COC1)C(C)(C)/C=C(\C#N)C(=O)N1CCC[C@H]1Cn1nc(-c2ccc(Oc3ccccc3)cc2F)c2c(N)ncnc21
kinact/KI (Tyrosine-protein kinase BTK (BTK, Homo sapiens, UniProt Q06187); enzyme activity, inhibitor): 400000 M⁻¹ s⁻¹

Excerpt of the above (block 6):
KRAS Q61L; 1.24 µM: 74.1% and 66.5% and 74.3%
KRAS G13D; 15.2 nM: 92.9% and 100% and 95.6%
KRAS Q61R; 15.2 nM: 102% and 89.1% and 97.5%
KRAS G13D; 1.69 nM: 95.9% and 104% and 90.4%
GTPase KRas (KRAS, Homo sapiens, UniProt P01116, G12D); 3.7 µM: 82.3% and 99.1% and 90.5%
KRAS G13D; 137 nM: 96.5% and 90.9% and 94.7%
KRAS Q61R; 1.24 µM: 95.8% and 75.2% and 87%
KRAS Q61L; 412 nM: 90.4% and 90.6% and 82.9%
KRAS Q61L; 45.7 nM: 92.5% and 82.3% and 88.6%
